Assay results pooled from the literature.
Numbered parts are unrelated; each lists some results of a single study.

Sample 1 — technique: protein-binding microarray; form: double-stranded DNA, one strand shown; sample: in vitro; tested at: not given; reading: higher = stronger binding; endpoint: E-score
Target: Max-binding protein MNT, bHLH-zipper, MAX partner unstated (MNT, Homo sapiens, UniProt Q99583, residues 220-300)
Setting: k-mer, scored over probes, only values ≥0.25
Construct (chain): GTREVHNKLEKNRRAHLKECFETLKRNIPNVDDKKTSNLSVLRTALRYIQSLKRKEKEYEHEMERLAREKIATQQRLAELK
Oligonucleotide = ACTCACAT; result = 0.296
Oligonucleotide = CGTGGGGC; result = 0.398
Oligonucleotide = ACATTGCA; result = 0.271
Oligonucleotide = CCACGGCA; result = 0.257
Oligonucleotide = CATGGGGA; result = 0.366
Oligonucleotide = CTCATGCA; result = 0.297

Sample 2 — technique: protein binding microarray; form: double-stranded DNA, one strand shown; sample: in vitro; tested at: not given; reference: not given; reading: higher = stronger binding; endpoint: E-score
Target: Histone acetyltransferase KAT6A, winged helix 2, GST fusion (KAT6A, Homo sapiens, UniProt Q92794, residues 85-181)
Setting: 8-mer, flanks averaged, mean of 2 arrays, mostly near background
Target sequence (chain): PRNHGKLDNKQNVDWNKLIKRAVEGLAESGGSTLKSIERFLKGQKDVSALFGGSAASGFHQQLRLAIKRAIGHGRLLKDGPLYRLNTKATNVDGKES
Oligonucleotide = CATCTCAC; result = 0.0234
Oligonucleotide = CGTCTCAC; result = -0.0617
Oligonucleotide = CGCCAACC; result = 0.163
Oligonucleotide = AACGATAC; result = -0.0214
Oligonucleotide = CCTGGCCC; result = 0.152
Oligonucleotide = AGGTCTTG; result = 0.132
Oligonucleotide = AAGAATGC; result = 0.0165
Oligonucleotide = ACTCGGGA; result = 0.118

Sample 3 — technique: aptamer microarray, sandwich; form: DNA with 2'F-ANA; sample: in vitro; tested at: 200 nM; together with: Cy3 exosite-II aptamer, 400 nM; reading: higher = stronger binding; endpoint: mean fluorescence intensity; oligonucleotide: GGTTGGTGTGGTTGG
Target: Prothrombin, mature alpha-thrombin (F2, Homo sapiens, UniProt P00734)
Setting: whole 15-mer aptamer, many near background
Modification = 2'F-ANA at 2 4 6 7 9 10 11 12 15; result = 132 a.u.
Modification = 2'F-ANA at 4 8 9 11 14; result = 81.2 a.u.
Modification = 2'F-ANA at 1 3 4 6 7 9 12 13 14 15; result = 65 a.u.
Modification = 2'F-ANA at 5 6 8 9 12 13 14 15; result = 52.7 a.u.
Modification = 2'F-ANA at 2 3 5 7 10 13 14; result = 48.5 a.u.

Other studies, line by line
Substance = PhoQ, residues 284 288 289 292 302 303 SIHLQL; target = PhoP, residues 12 14 15 18 19 LYHSL (Escherichia coli, UniProt P23836); assay = Sort-seq, refers to: YFP reporter; system = E. coli; setting = PhoQ-PhoP variant library, together with: 10 µM Mg2+; scale = reference: high Mg2+ state, higher = stronger signaling; endpoint = fold induction; result = 1.49

A few entries again (sample 2):
Oligonucleotide = CGCCAACC; result = 0.163
Oligonucleotide = AACGATAC; result = -0.0214
Oligonucleotide = CCTGGCCC; result = 0.152
